Results collected from several papers.
Each numbered part is a random draw from the data of one study; scales do not carry over between parts. Positions count from the first letter of the parent shown.
Chain of UniProt P10721 (whole entry, looked up): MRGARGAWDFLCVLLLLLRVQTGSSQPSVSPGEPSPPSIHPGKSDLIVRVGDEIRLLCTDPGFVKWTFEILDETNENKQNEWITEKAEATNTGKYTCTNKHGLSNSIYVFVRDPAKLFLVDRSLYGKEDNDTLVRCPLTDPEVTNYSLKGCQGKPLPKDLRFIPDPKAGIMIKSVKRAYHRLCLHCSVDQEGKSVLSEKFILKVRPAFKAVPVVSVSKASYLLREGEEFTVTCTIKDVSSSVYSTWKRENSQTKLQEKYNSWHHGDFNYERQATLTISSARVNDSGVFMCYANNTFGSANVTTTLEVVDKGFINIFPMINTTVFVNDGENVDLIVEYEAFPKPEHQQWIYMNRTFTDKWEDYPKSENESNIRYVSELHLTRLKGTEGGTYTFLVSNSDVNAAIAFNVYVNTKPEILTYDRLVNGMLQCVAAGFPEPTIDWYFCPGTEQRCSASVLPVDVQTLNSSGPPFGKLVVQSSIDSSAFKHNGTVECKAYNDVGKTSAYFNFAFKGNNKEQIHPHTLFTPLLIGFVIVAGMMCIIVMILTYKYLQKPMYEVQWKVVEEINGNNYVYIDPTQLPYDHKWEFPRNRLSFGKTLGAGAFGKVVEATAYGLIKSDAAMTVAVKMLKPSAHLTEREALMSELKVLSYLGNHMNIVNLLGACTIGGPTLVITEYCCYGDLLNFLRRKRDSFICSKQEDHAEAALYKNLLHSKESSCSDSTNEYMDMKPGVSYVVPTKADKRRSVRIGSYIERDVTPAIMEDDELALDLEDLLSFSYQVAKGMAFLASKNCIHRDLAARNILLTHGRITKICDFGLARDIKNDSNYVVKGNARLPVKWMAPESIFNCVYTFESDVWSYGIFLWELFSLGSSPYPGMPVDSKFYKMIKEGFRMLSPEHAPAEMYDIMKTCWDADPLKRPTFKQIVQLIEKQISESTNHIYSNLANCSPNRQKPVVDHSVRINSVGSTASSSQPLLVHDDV

Set 1 — target: CRIPT, C-terminal peptide; method: DHFR complementation, deep sequencing; sample: yeast; reference: wild type; direction: higher = weaker binding; quantity: binding free energy change
Notes: single substitutions, model-inferred values
Starting sequence: ERBIN, PDZ domain 1 (human); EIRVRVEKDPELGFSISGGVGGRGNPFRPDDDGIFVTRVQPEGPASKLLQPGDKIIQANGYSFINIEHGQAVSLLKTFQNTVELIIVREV; partner TKNYKQTSV
N25T: 0.732 kcal/mol
V90L: -0.0166 kcal/mol
V39D: 1.03 kcal/mol
I56T: 0.106 kcal/mol
I56Q: 0.137 kcal/mol
A71S: 0.263 kcal/mol
D30T: 0.216 kcal/mol
L12K: 1.47 kcal/mol

Set 2 — method: protein-binding microarray; molecule type: double-stranded DNA, one strand shown; sample: in vitro; tested at: 0.8 µM; notes: whole 60-bp probe, no competitor; direction: higher = stronger binding; quantity: fluorescence intensity; constant ends, left off below: … GTCTTGATTCGCTTGACGCTGCTG
Target: Centromere-binding protein 1, full length, N-terminal tag (CBF1, Saccharomyces cerevisiae, UniProt P17106, residues 1-351)
Chain of UniProt P17106 (whole entry, looked up): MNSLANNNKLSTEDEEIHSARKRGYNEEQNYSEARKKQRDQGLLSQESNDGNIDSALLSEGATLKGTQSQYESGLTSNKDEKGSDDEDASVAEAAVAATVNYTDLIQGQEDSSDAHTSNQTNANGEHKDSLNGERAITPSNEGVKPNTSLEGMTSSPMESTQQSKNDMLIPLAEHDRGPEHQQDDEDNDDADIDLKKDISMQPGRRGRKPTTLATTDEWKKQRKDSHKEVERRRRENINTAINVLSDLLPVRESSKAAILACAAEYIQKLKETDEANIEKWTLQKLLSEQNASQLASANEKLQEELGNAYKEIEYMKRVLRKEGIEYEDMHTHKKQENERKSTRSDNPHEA
GAAGAGGCTTTTCAGAACGTGCTGTACTTTCGGTAG: 678 a.u.
GAATTCGCCTGCAATCACCTGAACATGTTGGTCTAG: 764 a.u.
CTAAGATAAAAAGAGAGCGTGATATAAATGAATTTC: 815 a.u.
CTATGCAGTAGGGAGCTCATGACAGCAAGTACATTC: 574 a.u.
GAATGTGTGATGGACATCAGCATTCAATGTATATAG: 494 a.u.
CTAAACAGTCGCCCACACGTTCCCTCTTTTTTTTTC: 532 a.u.
TGTACGAAGCTATGTGACACGGTTATAGTAGTTAGG: 581 a.u.
GAAATACTACATGACGACGTCATATATACGTATTAG: 512 a.u.

Set 3 — target: Sox, HMG box (Pigoraptor chileana); method: Spec-seq; molecule type: double-stranded DNA, one strand shown; sample: in vitro; tested at: not given; notes: whole probe, mean of replicates; reference: not given; direction: lower = stronger binding; quantity: relative binding energy; constant ends, left off below: GAGTCGTCTCGTCAGCAC … CCGTAGAGCACTCAGGTC
Construct (chain): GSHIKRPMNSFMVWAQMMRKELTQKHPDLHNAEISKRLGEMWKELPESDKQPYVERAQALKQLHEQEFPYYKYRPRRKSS
CATGATA: 0.348 ln ratio
CATGGCT: 0.683 ln ratio
GCCGGTT: 1.03 ln ratio
TCATGTT: -0.235 ln ratio
CATTCTC: -1 ln ratio
CATGTCG: 0.796 ln ratio
ACAAGTT: -1.09 ln ratio
ATCTGTT: -1.14 ln ratio

Other studies, line by line
Cc1nc(C2CCN(C(=O)c3ccc(OC(F)(F)F)cc3N)CC2)c2ncc(N3CCN(C)CC3)cc2n1  remaining binding (Mast/stem cell growth factor receptor Kit, autoinhibited (KIT, Homo sapiens, UniProt P10721); cell-free assay, competition with immobilised ligand; 1 µM): 76%

A few entries again (set 1):
V39D: 1.03 kcal/mol
I56T: 0.106 kcal/mol
D30T: 0.216 kcal/mol
V90L: -0.0166 kcal/mol
